Results pooled from the literature.
Lines come from different studies, so protocols differ. Several values in a cell are separate wells, animals, samples, runs or records. ± gives the spread as reported.

CN(C)CCCn1c(=O)c2cc(Br)c3c(=O)n(CCCN(C)C)c(=O)c4c5[nH]c6ccccc6[nH]c5c(c1=O)c2c34  ΔTm (double-stranded DNA; FRET melting; 0.25 µM, K+ 100 mM): 1.6 ± 0.4 °C
Cc1cn([C@H]2C=C[C@@H](CO)O2)c(=O)[nH]c1=O  IC90 (HIV-1; viral replication; human immunodeficiency virus 1): 645 nM
C[C@]12O[C@H](C[C@]1(O)CO)n1c3ccccc3c3c4c(c5c6ccccc6n2c5c31)CNC4=O  viability (OCI-Ly1; 0.5 µM, 120 h): 25.8%
CC(C)C[C@H](NC(=O)C[C@H](O)[C@H](CC(C)C)NC(=O)[C@H](Cc1c[nH]cn1)NC(=O)CNC(=O)[C@@H](NC(=O)[C@H](C)NC(=O)[C@H](Cc1c[nH]c2ccccc12)NC(=O)[C@H](CCC(N)=O)NC(=O)[C@@H](Cc1ccccc1)NC(=O)COCCOCCNC(=O)CCC(C(=O)O)N1CCN(CC(=O)O)CCN(CC(=O)O)CCN(CC(=O)O)CC1)C(C)C)C(N)=O (stereo partly shown) [lutetium-177 labelled]  tissue uptake (BALB/c nu/nu mice, PC-3 xenograft tumour; 500 pmol, 1 h, together with: PA 300 µg): 8.2 ± 1.4 %ID/g
c1ccc(-c2n[nH]cc2-c2ccnc3ccccc23)nc1  log2 fold change (orf19.4575 kinase Candida albicans; MIB/MS competition binding; Candida albicans cell lysate; 1 µM; baseline: DMSO, lower = stronger binding): 1.18
NCCOc1cc(NC(=O)c2cc(OCc3c[nH]nn3)cc(C(=O)Nc3cc(OCCN)c4ccccc4n3)n2)nc2ccccc12  ΔTm (human telomeric G-quadruplex DNA; FRET melting; 1 µM, pH 7.4, together with: 60 mM potassium): 10.1 ± 0.6 K
CC(=O)N[C@H](C(=O)N1C[C@H](O)C[C@H]1C(=O)NCc1ccc(-c2scnc2C)cc1)C(C)(C)SCCCCCCNC(=O)C[C@@H]1N=C(c2ccc(Cl)cc2)c2c(sc(C)c2C)-n2c(C)nnc21  relative protein abundance (human DYNC1H1; TMT proteomics; HeLa; 1 µM, 24 h; baseline: DMSO): 1
O=C(O)CC[C@H](O)C(=O)O  inhibition (calcineurin, human; phosphatase activity, cell pretreatment then lysate; Jurkat cells; 30000 µM, 30 min, together with: PMA plus A23187 15 min): ~25%
c1coc(-c2n[nH]cc2-c2ccnc3ccccc23)c1  log2 fold change (STE11 (Candida albicans); kinase binding, MIB/MS competition; Candida albicans lysate; 10 µM; baseline: DMSO): 0.01
C#Cc1cc(-c2cc(Nc3nc(N[C@@H](C)c4ccc(F)cn4)ncc3Cl)n[nH]2)ccc1C=O  inhibition (EGFR del746-750 T790M (human); kinase activity; 200 nM): 4.67% and 4.41%
COc1cc(C(=O)Nc2cc(OC)c3ccccc3n2)nc(C(=O)Nc2cc(OC)c3ccccc3n2)c1  ΔTm (c-kit2 G-quadruplex DNA; FRET melting; 1 µM, pH 7.4, together with: 60 mM potassium): 1.1 ± 0.5 K
Cc1cc(C#N)cc(C)c1Oc1nc(Nc2ccc(C#N)cc2)nc(N)c1Br  IC90 (HIV-1; viral replication; human immunodeficiency virus 1): 6.07 nM
CC1CCCN1c1nccc(-c2cnn3ncccc23)n1 (stereo not shown)  remaining binding (human kinase panel; KINOMEscan; concentration not given; baseline: control): 87% and 69% and 100%
COc1cc(Nc2ncc3c(n2)-c2ccc(Cl)cc2C(c2c(F)cccc2OC)=NC3)ccc1C(=O)NCCOCCOCCNC(=O)COc1cccc2c1C(=O)N(C1CCC(=O)NC1=O)C2=O (stereo not shown)  EC50 (human CSNK2A1/CSNK2A3; binding, kinobead competition; MV4-11 cell lysate): > 30000 nM
CN(C)CCCOc1cc(NC(=O)c2cc(Cl)cc(C(=O)Nc3cc(OCCCN(C)C)c4ccccc4n3)n2)nc2ccccc12  ΔTm (human telomeric G-quadruplex DNA; FRET melting; 1 µM, pH 7.4, together with: 60 mM potassium): 35.9 ± 1 K
N#Cc1ccn2c(-c3ccncc3)c(-c3ccc(F)cc3)nc2c1  log2 fold change (orf19.4575 kinase Candida albicans; MIB/MS competition binding; Candida albicans cell lysate; 100 nM; baseline: DMSO, lower = stronger binding): -0.0811
CN(C)CCCn1c(=O)c2ccc3c(=O)n(CCCN(C)C)c(=O)c4c5[nH]c6cc([N+](=O)[O-])ccc6[nH]c5c(c1=O)c2c34  ΔTm (double-stranded DNA; FRET melting; 0.25 µM, K+ 100 mM): 1.6 ± 0.5 °C
O=C(Nc1cc(OCCN2CCCC2)c2ccccc2n1)c1cc(OCCN2CCCC2)cc(C(=O)Nc2cc(OCCN3CCCC3)c3ccccc3n2)n1  ΔTm (c-kit2 G-quadruplex DNA; FRET melting; 1 µM, pH 7.4, together with: 60 mM potassium): 14.9 ± 0.7 K
Oc1ccccc1-c1n[nH]cc1-c1ccnc2ccccc12  log2 fold change (STE11 (Candida albicans); kinase binding, MIB/MS competition; Candida albicans lysate; 10 µM; baseline: DMSO): 0.39
CNC(=O)c1ccccc1Nc1cc(Nc2ccc(N3CCOCC3)cc2OC)ncc1C(F)(F)F  remaining binding (RSK3; KINOMEscan; 1 µM; baseline: control): < 10%
N[C@@H]1CCN(c2nccc(-c3cnn4ncccc34)n2)C1  remaining binding (human kinase panel; KINOMEscan; concentration not given; baseline: control): 80% and 58% and 100%
C[C@H](CCC(C)(C)O)[C@H]1CC[C@H]2[C@@H]3CC=C4C[C@@H](O)CC[C@]4(C)[C@H]3CC[C@]12C  EC50 (NMDA receptor rat; NMDA current potentiation, potentiator, whole-cell recording; rat cultured hippocampal neurons; together with: NMDA 10 µM): 62.8 nM
NCCOc1cc(C(=O)Nc2cc(OCCN)c3ccccc3n2)nc(C(=O)Nc2cc(OCCN)c3ccccc3n2)c1  ΔTm (c-kit2 G-quadruplex DNA; FRET melting; 1 µM, pH 7.4, together with: 60 mM potassium): 22.3 ± 0.7 K
O=C(c1ccc(F)cc1)N(Cc1ccccc1)C1CCCCC1  inhibition (sodium channel site 2; binding; 10 µM): 1%
Cc1n[nH]c2ccc(-c3cc(OC[C@@H](N)Cc4ccccc4)cnc3-c3ccoc3)cc12  log2 fold change (orf19.4575 kinase Candida albicans; MIB/MS competition binding; Candida albicans cell lysate; 1 µM; baseline: DMSO, lower = stronger binding): -0.272
CN(C)CCOc1cc(NC(=O)c2cc(Cl)cc(C(=O)Nc3cc(OCCN(C)C)c4ccccc4n3)n2)nc2ccccc12  ΔTm (c-kit2 G-quadruplex DNA; FRET melting; 1 µM, pH 7.4, together with: 60 mM potassium): 13.3 ± 0.4 K
CC(Nc1nc(N2CCCC2)nc2ccccc12)c1ccccc1 (stereo not shown)  cells with nuclear reporter (importin α/β1; cMyc nuclear import, high content imaging; HeLa Kyoto reporter; 1 µM, 2 h): 84.3% and 98.6%
Cn1cc(-c2ccc(-c3cncc(Cl)c3N3CCC4(CCNC4=O)CC3)cc2)cn1  log2 fold change (COLO 205; gene expression, microarray, item: BCL2L1 mRNA; concentration not given, 2 h; baseline: untreated cells): 2.24
NCCCOc1cc(NC(=O)c2cc(Cl)cc(C(=O)Nc3cc(OCCCN)c4ccccc4n3)n2)nc2ccccc12  delta Tm (double-stranded DNA; FRET melting; 1 µM, pH 7.4, 60 mM potassium, together with: oligonucleotide 200 nM): 0.4 K
CC[C@@H](C(=O)Nc1ccc(C(N)=O)c(F)c1)n1cc(OC)c(-c2cc(Cl)ccc2-n2cc(C(F)(F)F)nn2)cc1=O  IC50 (human chymotrypsin; enzyme activity): > 10000 nM
CCN1CCN(Cc2ccc(C(=O)Nc3cccc(CCc4cnc5[nH]ccc5c4OC)c3)cc2C(F)(F)F)CC1  inhibition (ABL/ARG kinases (human); KiNativ profiling; Huh-7 cell lysate; 1.0 µM): > 80%
C#CCOc1cc(C(=O)Nc2cc(OCCCN)c3ccccc3n2)nc(C(=O)Nc2cc(OCCCN)c3ccccc3n2)c1  ΔTm (human telomeric G-quadruplex DNA; FRET melting; 1 µM, pH 7.4, together with: 60 mM potassium): 18.3 ± 0.5 K
CCCCCOc1ccc(/C=C\c2cccc(O)c2C(=O)O)cc1  viability (OCI-Ly1; 0.5 µM, 120 h): 152%
O=C1c2cccc(O)c2C(=O)c2c(O)cc(CO)cc21  cell viability (HepaRG co-cultured with HK-2; MTT; 66.67 µM, 48 h; baseline: untreated control): 60 ± 4.64%

Some of these lines once more:
CN(C)CCOc1cc(NC(=O)c2cc(Cl)cc(C(=O)Nc3cc(OCCN(C)C)c4ccccc4n3)n2)nc2ccccc12  ΔTm (c-kit2 G-quadruplex DNA; FRET melting; 1 µM, pH 7.4, together with: 60 mM potassium): 13.3 ± 0.4 K
CC(Nc1nc(N2CCCC2)nc2ccccc12)c1ccccc1 (stereo not shown)  cells with nuclear reporter (importin α/β1; cMyc nuclear import, high content imaging; HeLa Kyoto reporter; 1 µM, 2 h): 84.3% and 98.6%
Cn1cc(-c2ccc(-c3cncc(Cl)c3N3CCC4(CCNC4=O)CC3)cc2)cn1  log2 fold change (COLO 205; gene expression, microarray, item: BCL2L1 mRNA; concentration not given, 2 h; baseline: untreated cells): 2.24
